{"data": "Earlier results that unrelated publications cite", "organism": "HIV-1", "note": "Each line is one published result; not all experiments were run side by side. ± marks the error that the study gave."}
{"SMILES": "N#C/C=C/c1cc(Cl)cc(Oc2ccc(Cl)cc2OCCn2ccc(=O)[nH]c2=O)c1", "assay": "viral replication", "test system": "wild type", "quantity": "EC50", "result": "0.055 nM"}
{"SMILES": "CC(C)CN(C[C@@H](O)[C@H](Cc1ccccc1)NC(=O)O[C@H]1C2CO[C@H]3OC[C@@H]1C3C2)S(=O)(=O)c1ccc2nc(NC3CC3)sc2c1 (stereo partly shown)", "assay": "viral replication, p24", "test system": "MT-4, NL4-3 wild type", "setting": "mean value", "quantity": "IC50", "result": "0.39 nM"}
{"SMILES": "Cc1cc(-c2ccc(C#N)cc2)cc(C)c1Nc1ccnc(Nc2ccc(C#N)cc2)n1", "assay": "viral replication", "test system": "wild type", "quantity": "EC50", "result": "1 nM"}
{"SMILES": "COC(=O)NC(C(=O)NN(Cc1ccc(Br)cc1)CC(O)(Cc1ccccc1)C(=O)Nc1cccc(O)c1C)C(C)(C)C (stereo not shown)", "assay": "viral replication", "test system": "MT-4", "quantity": "EC50", "result": "> 10000 nM"}
{"SMILES": "Cc1cc(C#N)cc(C)c1Oc1nc(NC2CCN(Cc3ccc(S(N)(=O)=O)cc3)CC2)nc2ccsc12", "assay": "viral replication, MTT", "test system": "MT-4, IIIB wild type", "quantity": "EC50", "result": "1.4 ± 0.4 nM"}
{"SMILES": "Cc1cn(C2C=CC(COP(=O)(O)OP(=O)(O)OP(=O)(O)O)O2)c(=O)[nH]c1=O (stereo not shown)", "assay": "viral replication", "test system": "CEM/0, IIIB", "quantity": "EC50", "result": "1050 ± 350 nM"}
{"SMILES": "COCCNC(=O)C(NC(=O)C(O)(Cc1ccccc1)CN(Cc1ccc(Br)cc1)NC(=O)C(NC(=O)OC)C(C)(C)C)C(C)C (stereo not shown)", "assay": "viral replication", "test system": "MT-4", "quantity": "EC50", "result": "3100 nM"}
{"SMILES": "CC(=O)N[C@H](CCCNC(=N)N)C(=O)N[C@H](CCCNC(=N)N)C(=O)N[C@H](CCCNC(=N)N)C(=O)N[C@H](CCCNC(=N)N)C(=O)N[C@H](CCCNC(=N)N)C(=O)N[C@H](CCCNC(=N)N)C(=O)N[C@H](CCCNC(=N)N)C(=O)N[C@H](CCCNC(=N)N)C(=O)N[C@H](CCCNC(=N)N)C(N)=O", "assay": "viral replication", "test system": "peripheral blood lymphocytes, NL4-3", "quantity": "IC50", "result": "3 nM"}
{"SMILES": "COC(=O)NC(C(=O)NN(Cc1ccc(Br)cc1)CC(O)(Cc1ccccc1)C(=O)NC1CCOC1)C(C)(C)C (stereo not shown)", "assay": "viral replication", "test system": "MT-4", "quantity": "EC50", "result": "> 10000 nM"}
{"SMILES": "COc1ccc(N(C)C(=O)[C@H](Cc2ccccc2)NC(=O)NS(=O)(=O)N2CCCc3ccccc32)cc1", "assay": "viral replication", "quantity": "EC50", "result": "110 nM"}
{"SMILES": "COC(=O)NC(C(=O)NN(Cc1ccc(C=Cc2ccccc2)cc1)CC(O)(Cc1ccccc1)C(=O)NC1c2ccccc2CC1O)C(C)(C)C (stereo not shown)", "assay": "viral replication", "test system": "MT-4", "quantity": "EC50", "result": "> 10000 nM"}
{"SMILES": "N#Cc1ccc2c(Oc3ccc(F)cc3OCCn3ccc(=O)[nH]c3=O)cc(F)cc2c1", "assay": "viral replication", "test system": "wild type", "quantity": "EC50", "result": "1.9 nM"}
{"SMILES": "O=C(CCC(CCC(=O)N[C@@H](Cc1ccc(O)cc1)C(=O)O)(CCC(=O)N[C@@H](Cc1ccc(O)cc1)C(=O)O)NC(=O)CCOCC(COCCC(=O)NC(CCC(=O)N[C@@H](Cc1ccc(O)cc1)C(=O)O)(CCC(=O)N[C@@H](Cc1ccc(O)cc1)C(=O)O)CCC(=O)N[C@@H](Cc1ccc(O)cc1)C(=O)O)(COCCC(=O)NC(CCC(=O)N[C@@H](Cc1ccc(O)cc1)C(=O)O)(CCC(=O)N[C@@H](Cc1ccc(O)cc1)C(=O)O)CCC(=O)N[C@@H](Cc1ccc(O)cc1)C(=O)O)COCCC(=O)NC(CCC(=O)N[C@@H](Cc1ccc(O)cc1)C(=O)O)(CCC(=O)N[C@@H](Cc1ccc(O)cc1)C(=O)O)CCC(=O)N[C@@H](Cc1ccc(O)cc1)C(=O)O)N[C@@H](Cc1ccc(O)cc1)C(=O)O", "assay": "viral cytopathicity", "test system": "MT-4, NL4.3", "quantity": "EC50", "result": "6400 ± 1400 nM"}
{"note": "Excerpt of the above:"}
{"SMILES": "Cc1cc(C#N)cc(C)c1Oc1nc(NC2CCN(Cc3ccc(S(N)(=O)=O)cc3)CC2)nc2ccsc12", "assay": "viral replication, MTT", "test system": "MT-4, IIIB wild type", "quantity": "EC50", "result": "1.4 ± 0.4 nM"}
